Measurements collected from several papers.
Each numbered part is a random draw from the data of one study; scales do not carry over between parts.

Block 1
Target: Prothrombin, mature alpha-thrombin (F2, Homo sapiens, UniProt P00734)
Technique: aptamer microarray, sandwich
Form: DNA with 2'F-ANA
Matrix: in vitro
Tested at: 200 nM
Setting: whole 15-mer aptamer, many near background
Together with: Cy3 exosite-II aptamer, 400 nM
Direction: higher = stronger binding
Quantity: mean fluorescence intensity
GGTTGGTGTGGTTGG (2'F-ANA at 3 4 5 6 12 13): 107 a.u.
GGTTGGTGTGGTTGG (2'F-ANA at 1 2 7 11 12 15): 303 a.u.
GGTTGGTGTGGTTGG (2'F-ANA at 1 5 6 9 12 13 14 15): 46 a.u.

Block 2
Target: Histone acetyltransferase KAT6A, both winged helices, GST fusion (KAT6A, Homo sapiens, UniProt Q92794, residues 1-181)
Technique: protein binding microarray
Form: double-stranded DNA, one strand shown
Matrix: in vitro
Tested at: not given
Setting: 8-mer, flanks averaged, mean of 2 arrays, mostly near background
Relative to: not given
Direction: higher = stronger binding
Quantity: E-score
Construct (chain): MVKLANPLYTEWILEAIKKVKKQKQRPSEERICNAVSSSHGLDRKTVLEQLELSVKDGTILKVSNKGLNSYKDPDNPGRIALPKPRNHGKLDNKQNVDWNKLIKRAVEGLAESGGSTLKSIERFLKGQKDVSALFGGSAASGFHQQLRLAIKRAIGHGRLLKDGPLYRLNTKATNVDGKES
CGCAGGCA: 0.143
AGAAATCT: -0.0809
GTTTCAAA: 0.00985
CTGCATGA: -0.166
ACGCTTGA: 0.14

Block 3
Target: Interferon regulatory factor 7, full length, phosphomimetic (IRF7, Homo sapiens, UniProt Q92985, residues 1-503, S471D/S472D/S475D/S476D/S477D/S483D/S484D/S487D)
Technique: protein-binding microarray
Form: double-stranded DNA, one strand shown
Matrix: in vitro
Tested at: 2200 nM top
Setting: 60-bp whole probe
Together with: salmon DNA 0.4 mg/ml
Relative to: random background probes
Direction: higher = stronger binding
Quantity: fitted relative affinity
All sequences stand within: GCCTAGCAC … GTCTTGATTCGCTTGACGCTGCTG
Construct (chain): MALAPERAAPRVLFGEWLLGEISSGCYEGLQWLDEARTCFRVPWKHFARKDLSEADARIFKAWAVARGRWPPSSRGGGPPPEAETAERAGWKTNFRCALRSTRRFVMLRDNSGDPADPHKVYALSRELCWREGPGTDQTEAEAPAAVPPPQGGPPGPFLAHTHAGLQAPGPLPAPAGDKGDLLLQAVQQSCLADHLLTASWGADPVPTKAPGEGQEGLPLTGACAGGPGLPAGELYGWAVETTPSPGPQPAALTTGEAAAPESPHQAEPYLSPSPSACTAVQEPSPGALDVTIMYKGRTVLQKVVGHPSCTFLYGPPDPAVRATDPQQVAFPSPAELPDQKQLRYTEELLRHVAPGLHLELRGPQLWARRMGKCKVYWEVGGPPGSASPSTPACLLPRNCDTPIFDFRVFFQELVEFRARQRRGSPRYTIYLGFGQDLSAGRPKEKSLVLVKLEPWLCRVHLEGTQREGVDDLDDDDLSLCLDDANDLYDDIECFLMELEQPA
TTAGAAGTGAGTCTCGATTAGTGCTAG: -0.383 z-score
GACGATTTCGGGACTGGAAACGTGCTA: 1.22 z-score
GACGGTCTCCTTTTCCCGACGTGCTAG: 1.85 z-score
GACGGTGTCGGGACTGGGGACGTGCTA: -1.05 z-score
TTACAACTGAGTCTCGATTAGTGCTAG: 0.518 z-score
TTAGGACTGGGGCTTCGGTTAGTGCTA: -0.653 z-score
TCAGCTTCCTCTTTTTTACTGTGCTAG: 1.92 z-score

Mixed results
PhoQ, residues 284 288 289 292 302 303 QWGLFV — fold induction (PhoP, residues 12 14 15 18 19 HLGGL (Escherichia coli, UniProt P23836); Sort-seq, measured: YFP reporter; E. coli; PhoQ-PhoP variant library, together with: 10 µM Mg2+; relative to: high Mg2+ state, higher = stronger signaling): 1.33
